Experimental data gathered from unrelated publications.
A part holds a random share of what one study measured. Changes are numbered by the printed parent chain.
Sequence of UniProt O15294 (whole entry, looked up): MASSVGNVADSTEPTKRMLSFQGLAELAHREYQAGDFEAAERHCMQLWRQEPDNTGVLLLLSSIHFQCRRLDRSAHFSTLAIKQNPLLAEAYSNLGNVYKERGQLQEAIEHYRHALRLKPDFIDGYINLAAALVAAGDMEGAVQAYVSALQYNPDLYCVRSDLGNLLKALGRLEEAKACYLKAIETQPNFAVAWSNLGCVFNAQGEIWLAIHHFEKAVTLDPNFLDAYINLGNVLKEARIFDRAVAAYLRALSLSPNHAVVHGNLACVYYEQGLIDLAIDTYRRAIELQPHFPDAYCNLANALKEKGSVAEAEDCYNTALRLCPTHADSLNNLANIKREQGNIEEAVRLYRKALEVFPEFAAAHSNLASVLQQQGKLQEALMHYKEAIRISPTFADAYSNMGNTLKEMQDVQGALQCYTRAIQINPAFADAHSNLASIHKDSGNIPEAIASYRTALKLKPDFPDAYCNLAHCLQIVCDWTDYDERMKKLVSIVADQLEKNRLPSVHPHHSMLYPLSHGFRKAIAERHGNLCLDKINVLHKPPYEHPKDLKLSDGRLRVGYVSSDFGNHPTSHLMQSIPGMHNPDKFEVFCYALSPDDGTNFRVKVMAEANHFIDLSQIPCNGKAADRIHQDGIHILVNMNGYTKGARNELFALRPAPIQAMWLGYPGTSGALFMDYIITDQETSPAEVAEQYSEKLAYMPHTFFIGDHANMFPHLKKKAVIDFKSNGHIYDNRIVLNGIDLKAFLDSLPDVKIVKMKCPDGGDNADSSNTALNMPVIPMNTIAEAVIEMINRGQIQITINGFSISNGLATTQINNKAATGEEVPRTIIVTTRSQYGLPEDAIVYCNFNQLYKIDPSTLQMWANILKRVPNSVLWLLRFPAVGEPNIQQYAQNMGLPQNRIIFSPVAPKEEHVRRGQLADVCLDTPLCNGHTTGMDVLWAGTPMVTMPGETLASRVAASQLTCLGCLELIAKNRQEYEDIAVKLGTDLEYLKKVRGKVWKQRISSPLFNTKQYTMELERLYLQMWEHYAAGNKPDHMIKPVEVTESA

Series 1
Target: inorganic phosphate, free oxyanion
Technique: microfluidic competitive inhibition
Medium: in vitro, cell-free expressed
Tested at: not given
Notes: derived from inhibition constants, unchanged parent 615000 nM
Reading: lower = stronger binding
Quantity: phosphate dissociation constant
Parent: PafA, mature enzyme, eGFP fusion (Elizabethkingia meningoseptica, UniProt Q9KJX5); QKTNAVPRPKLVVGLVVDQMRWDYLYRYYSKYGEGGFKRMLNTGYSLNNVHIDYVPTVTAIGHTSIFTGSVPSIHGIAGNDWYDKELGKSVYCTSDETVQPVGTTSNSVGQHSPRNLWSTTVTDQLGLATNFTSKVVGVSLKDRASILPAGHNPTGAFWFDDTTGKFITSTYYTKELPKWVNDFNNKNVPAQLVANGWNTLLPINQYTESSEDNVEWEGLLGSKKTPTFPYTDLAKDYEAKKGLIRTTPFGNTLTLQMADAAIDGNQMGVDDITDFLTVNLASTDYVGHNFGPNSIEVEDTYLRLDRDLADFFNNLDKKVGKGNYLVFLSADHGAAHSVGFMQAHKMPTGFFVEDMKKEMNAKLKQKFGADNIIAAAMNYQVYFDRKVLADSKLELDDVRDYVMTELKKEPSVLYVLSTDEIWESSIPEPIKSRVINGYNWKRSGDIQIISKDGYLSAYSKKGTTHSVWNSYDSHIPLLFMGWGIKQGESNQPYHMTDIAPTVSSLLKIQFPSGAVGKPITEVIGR
S90G: 453 µM
R434V: 356 µM
S412G: 707 µM

Series 2
Target: Histone acetyltransferase KAT6A, both winged helices, GST fusion (KAT6A, Homo sapiens, UniProt Q92794, residues 1-181)
Technique: protein binding microarray
Form: double-stranded DNA, one strand shown
Medium: in vitro
Tested at: not given
Notes: 8-mer, flanks averaged, mean of 2 arrays, mostly near background
Reference: not given
Reading: higher = stronger binding
Quantity: E-score
Target sequence (chain): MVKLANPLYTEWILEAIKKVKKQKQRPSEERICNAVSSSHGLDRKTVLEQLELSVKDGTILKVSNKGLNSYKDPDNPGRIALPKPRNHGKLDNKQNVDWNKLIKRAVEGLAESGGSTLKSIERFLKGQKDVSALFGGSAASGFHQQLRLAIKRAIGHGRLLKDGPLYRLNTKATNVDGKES
CCACACTC: -0.0942
ATGCTGAA: -0.216
AGCCACTC: -0.0825
CTAAAAGA: -0.176
CCATGTGA: -0.174
ACTGGTAG: -0.173
AGGATCGA: -0.0823
TGGAGTAA: -0.236

Series 3
Target: Ras GTPase-activating protein-binding protein 1, RRM domain (G3BP1, Homo sapiens, UniProt Q13283)
Sequence of UniProt Q13283 (whole entry, looked up): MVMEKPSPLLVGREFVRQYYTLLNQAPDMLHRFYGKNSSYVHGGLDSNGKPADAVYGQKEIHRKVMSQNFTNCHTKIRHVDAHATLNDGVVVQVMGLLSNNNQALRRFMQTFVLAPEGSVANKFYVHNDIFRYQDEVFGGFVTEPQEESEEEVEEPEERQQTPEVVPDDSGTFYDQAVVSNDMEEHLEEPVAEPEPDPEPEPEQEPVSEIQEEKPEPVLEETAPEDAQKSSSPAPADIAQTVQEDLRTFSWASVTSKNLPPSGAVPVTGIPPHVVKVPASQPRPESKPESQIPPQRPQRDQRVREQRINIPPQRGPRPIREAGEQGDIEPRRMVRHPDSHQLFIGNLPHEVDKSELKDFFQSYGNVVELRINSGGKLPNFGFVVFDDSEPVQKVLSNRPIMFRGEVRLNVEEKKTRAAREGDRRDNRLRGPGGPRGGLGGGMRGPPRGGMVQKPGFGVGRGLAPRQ
Technique: RNA Bind-n-Seq
Form: RNA
Medium: in vitro
Tested at: 1 µM
Notes: whole 134-nt RNA, ends assumed
Together with: 150 mM KCl
Reference: input library
Reading: higher = stronger binding
Quantity: log2 enrichment
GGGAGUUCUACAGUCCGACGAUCUAACUUUAGAGGAGGAUCAGAUGGAUAUGGCAGUGGACGUGGAUUUGGGGAUGGCUAUAAUGGGUAUGGAGGAGGACCUGGAGGUGGCAAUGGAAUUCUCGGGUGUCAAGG: -0.692
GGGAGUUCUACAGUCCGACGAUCGUCCUGUGCUACACAUCGUAUGUACCGAAUCGGUUUUUUGGGUUUUUUGGUUUUUUGGGAAAGUAUUAUGUUACGCCGUUCGGAUCUGCAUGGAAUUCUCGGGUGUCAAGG: -0.192
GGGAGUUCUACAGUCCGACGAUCUAACUUUAGAGGAGGAUCUGAUGGAUAUGGCAGUGGACGUGGAUUUGGGGAUGGCUAUAAUGGGUAUGGAGGUGGACCUGGAGGUGGCAAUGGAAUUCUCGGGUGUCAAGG: -0.313
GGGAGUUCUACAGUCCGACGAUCUAUGGACAAGCAUAAUGGAACAGACAGGUUUGUGAACCAGCAGUUUCAAGAGGAAAAGUUAAAUAAAUUGCAGAAGUUACUUAUUCUUUUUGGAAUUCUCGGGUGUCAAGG: -0.0181
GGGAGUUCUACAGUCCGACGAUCCCUCAAGUCCUGUGCUACACAUCGUAUGUACCGAAUCGGUGGGUGGGGUGGGGAAAGUAUUAUGUUACGCCGUUCGGAUCUGCACUUCCAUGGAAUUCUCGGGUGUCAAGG: 0.0832
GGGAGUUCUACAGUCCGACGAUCUCAAGUCCUGUGCUACACAUCGUAUGUACCGAAUCGGGGCCGGGCCGGGCCGGGAAAGUAUUAUGUUACGCCGUUCGGAUCUGCACUUCCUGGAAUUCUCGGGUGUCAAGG: -0.784
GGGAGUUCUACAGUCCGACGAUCGCAGGAAGUAAAAACAAAUGGAAAUGCUUCGGAUAGUGGCAGGGGUGGGGGUUGCUAAGGAAAGGGUGGGAUGUGAGUGGGUAAAGAGUUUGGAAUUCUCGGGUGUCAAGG: 1.35
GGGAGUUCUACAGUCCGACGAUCAGUCCUGUGCUACACAUCGUAUGUACCGAAUCGGGGUUUGGGGUUUGGGGUUUGGGGAAAGUAUUAUGUUACGCCGUUCGGAUCUGCACUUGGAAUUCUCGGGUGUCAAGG: 1.89

Mixed results
HSKVHSHDVVTIYHH  minimum log2 enrichment ratio (OGT (Homo sapiens, UniProt O15294); binding, phage display NGS; peptide; reference: input library): 1.9
PhoQ, residues 284 288 289 292 302 303 NLALSC  fold induction (PhoP, residues 12 14 15 18 19 SYFRT (Escherichia coli, UniProt P23836); Sort-seq, measured: YFP reporter; E. coli; PhoQ-PhoP variant library, together with: 10 µM Mg2+; reference: high Mg2+ state, higher = stronger signaling): 4.41

Some of these lines once more (series 3):
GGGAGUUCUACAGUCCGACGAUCGCAGGAAGUAAAAACAAAUGGAAAUGCUUCGGAUAGUGGCAGGGGUGGGGGUUGCUAAGGAAAGGGUGGGAUGUGAGUGGGUAAAGAGUUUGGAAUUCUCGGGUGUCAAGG: 1.35
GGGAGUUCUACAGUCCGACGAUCUAACUUUAGAGGAGGAUCUGAUGGAUAUGGCAGUGGACGUGGAUUUGGGGAUGGCUAUAAUGGGUAUGGAGGUGGACCUGGAGGUGGCAAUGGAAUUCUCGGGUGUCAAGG: -0.313
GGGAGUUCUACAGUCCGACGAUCAGUCCUGUGCUACACAUCGUAUGUACCGAAUCGGGGUUUGGGGUUUGGGGUUUGGGGAAAGUAUUAUGUUACGCCGUUCGGAUCUGCACUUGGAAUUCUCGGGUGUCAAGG: 1.89
